Assay results pooled from the literature.
Compare with care: the assays were run in different laboratories. ± marks the error that the study gave.
Organism: Trypanosoma brucei

N=C(N)c1ccc(OCCCCCOc2ccc(C(=N)N)cc2)cc1
membrane potential change (safranine fluorescence; procyclic form; 5 µM, unit not given; higher = stronger uncoupling): 64 ± 11

O=C(O)CC1CC(Br)=NO1 (stereo not shown)
EC50 (parasite growth, resazurin; 72 h): > 100000 nM

O=C1Nc2ccc3ncsc3c2/C1=C/Nc1ccc(S(=O)(=O)Nc2ccccn2)cc1
EC50 (transferrin endocytosis, inhibitor; bloodstream form; added: transferrin): 800 ± 100 nM

N=C(N)c1ccc(OCCCCCOc2ccc(C(=N)N)cc2)cc1
EC50 (parasite growth, resazurin; 72 h): 1 nM

Nc1cccc(-c2cc3c(Oc4cccc(O)c4)ncnc3[nH]2)c1
EC50 (transferrin endocytosis, inhibitor; bloodstream form; added: transferrin): 2000 ± 1000 nM

Nc1nc(N)nc(Nc2ccc([As]3SCC(CO)S3)cc2)n1 (stereo not shown)
EC50 (parasite growth, resazurin; RHODESIENSE STIB900; 70 h): 6 nM

CC(N)C12CC3CC(CC(C3)C1)C2 (stereo not shown)
IC50 (parasite growth; 48 h): 7.04 µM

COc1ccc2c3c4n(c2c1)[C@H](C=C(C)C)OOC(C)(C)C[C@@H]4N1C(=O)[C@@H]2CCCN2C(=O)[C@]1(O)[C@H]3O
IC50 (parasite growth; 40 h): < 20 µM

N=C(N)c1ccc(OCCCCCOc2ccc(C(=N)N)cc2)cc1
IC50 (parasite growth, resazurin; 76 h): 0.0032 µM

CC12CC3CC(C)(C1)CC(N)(C3)C2
IC50 (parasite growth; 48 h): 13.8 µM

A few entries again:
CC12CC3CC(C)(C1)CC(N)(C3)C2
IC50 (parasite growth; 48 h): 13.8 µM
